Measured values collected from several papers.
Lines come from different studies, so protocols differ. Values joined by “and” are separate records of one study, mostly repeats; a detail may differ. ± gives the spread as reported.

SMILES	assay	system	setting	how to read	endpoint	result
CCn1cc(C(=O)N2CCOCC2)c(=O)c2cc(NC3Cc4ccccc4C3)cnc21		human, fasted	oral suspension, 150 mg single dose, median		Tmax	2.5 h
CC(C)(C(=O)N1CCOc2c(C#N)cncc2C1)C(F)F	measured: CSF leakage	human	oral, 40 mg, CSF pharmacokinetic cohort		subjects with adverse event	50%
CNC(=O)c1ccc(-c2cnc3ncc(Cc4ccc5ncccc5c4)n3n2)cc1F		Japanese patients	oral, 400 mg, grade 3/4		γGT increased dose reduction/interruption	0%
C=CCN1CC(=O)N2[C@@H](Cc3ccc(O)cc3F)C(=O)N(Cc3cccc(N4CC(N5CCN(CC)CC5)C4)n3)C[C@@H]2N1C(=O)NCc1ccccc1		advanced solid tumour patients	oral, 10 mg twice daily, grade ≥3, dose-escalation		treatment-related AST increased	0%
CSc1ccccc1C(=O)NCCn1cc(C(=O)NCc2cccc(C)n2)c(=O)c2cc3c(cc21)OC(F)(F)O3		Sprague-Dawley rat, male, whole blood	intravenous, 5 mg/kg of parent compound		AUC(0-t)	129 ± 11.5 ng·h/mL
CNC(=O)c1cccc(-c2ccc3c(N4CCOC[C@@H]4C)nc(N4CCOC[C@@H]4C)nc3n2)c1		patients with advanced solid tumours, plasma	oral, 35 mg, all dose levels, with: navitoclax		Cmin,ss	312 ± 350 ng/mL
C[C@@H](Nc1cc(F)cc(F)c1)c1cc(C(=O)N(C)C)cc2c(=O)cc(N3CCOCC3)oc12		advanced solid tumour patients	oral, 120 mg twice daily, continuous monotherapy		any dose interruption	40%
O=C(Nc1c2c(cc3c1CCC3)CCC2)NS(=O)(=O)/C=C/c1nccs1		human liver microsomes	1 µM		metabolic rate	0.019 nmol/min/mg protein
O=C(O)CCCOc1ccc([18F])cc1-c1cc(-c2ccccc2C(F)(F)F)n(-c2ccccc2)n1	gamma counting	male ddY mice, heart	intravenous, 2.1 MBq, 5 min		radioactivity uptake	7.05 ± 0.94 SUV
Cc1ccc(N(C)C(=O)/C=C/c2ccco2)cc1	cold plate test	mice	oral, 30 mg/kg daily for 7 days, 15 min after dose, day 8		licking latency	19.4 ± 0.5 s
Cc1nc(-c2cnc(NC(C)C)n(C)c2=O)ccc1Oc1ccnc(-c2cnn(C)c2)c1		DBA/1 mouse, female, plasma	oral, 30 mg/kg, single dose		apparent volume of distribution	2.33 L/kg
COc1ncc(-c2nc3c(n2C(C)C)[C@H](c2ccc(Cl)cc2)N(c2cc(Cl)cn(C)c2=O)C3=O)c(OC)n1		human patients, plasma	oral, 100 mg, high-dose arm, cycle 1 day 1		median half-life	17.1 h
CCc1c(-c2ccccc2)c(-c2ccccc2)nn1-c1ccccc1-c1cccc(OCC(=O)O)c1		Sprague-Dawley rat, heart	oral, 10 mg/kg, 4 h		concentration	3990 ng/g and 2060 ng/g
Cc1cc([C@H]2C[C@H]3[C@@H](CF)SC(N)=N[C@@]3(c3ccc(F)cc3F)CO2)on1		male 129/SVE wild-type mouse, brain	subcutaneous, 30 mg/kg, 7 h		brain concentration	37 nM
C[C@H]1Oc2cc(cnc2N)-c2c(nn(C)c2C#N)CN(C)C(=O)c2ccc(F)cc21	population PK	patients with severe renal impairment, plasma	oral, 100 mg, mean, single dose		clearance	80.2 mL/min
NC1(C(=O)N[C@@H](CCO)c2ccc(Cl)cc2)CCN(c2nc[nH]c3nccc2-3)CC1		metastatic CRPC patients	480 mg b.i.d., grade 3 to 4, treatment-related, with: enzalutamide 160 mg daily		incidence of Neutropenia	20%
N#Cc1ccc2c(c1)[C@H]1CCCN(C(=O)c3ccc4[nH]cnc4c3)[C@H]1C2		human females	240 mg, day 15		total testosterone level	1.1 nmol/L
Cc1c(-c2ccc(N3CCc4cccc(C(=O)Nc5nc6ccccc6s5)c4C3)nc2C(=O)O)cnn1CC12CC3(C)CC(C)(C1)CC(OCCNCC[C@H](O)CO)(C3)C2		anaesthetized male beagle dog	iv infusion, 0.01 mg/kg/min, 30 min		plasma concentration	< 2 ng/mL
COc1cc(C(=O)N2CCC3(CC2)CC(=O)c2c(cnn2C(C)C)C3)cc(-c2ccc(C(=O)O)cc2)n1	measured: direct LDL cholesterol	human, fasting serum	10 mg every 12 h, day 13, adjusted geometric mean	reference: baseline and placebo	placebo-adjusted change from baseline	1.5%
COc1cc(Nc2ncc3c(n2)-c2ccc(Cl)cc2C(c2c(F)cccc2OC)=NC3)ccc1C(=O)O		patients	oral, dose not given, grade 4, any attribution, with: pembrolizumab		decreased platelet count incidence	4%
OCc1nc2ccc(NCc3ccc(C(F)(F)F)cc3)cc2[nH]1		Balb/c mouse, male, heart	intravenous, 1 mg/kg, 6 h	reference: tissue over plasma	tissue/plasma ratio	2 ± 0.3
COc1ccnc(C(N)=O)c1O		water/sediment	whole system, geometric mean, no decline default		DT50	1000 days
O=C(Nc1ccc(OC(F)(F)Cl)cc1)c1cnc(N2CC[C@@H](O)C2)c(-c2ccn[nH]2)c1	per patient, measured: platelet decrease	human patients	oral, dose not given		grade ≥3 event rate	19.9%
Cc1cccc(CNC(=O)c2cn(CCNC(=O)c3ccccc3Sc3c([N+](=O)[O-])ncn3C)c3cc4c(cc3c2=O)OC(F)(F)O4)n1		Sprague-Dawley rat, male, plasma	intramuscular, 3 mg/kg of parent drug		bioavailability	62%
OC[C@H]1O[C@@H](c2ccc(F)c(Cc3cc4ccccc4s3)c2)[C@H](O)[C@@H](O)[C@@H]1O		Japanese type 2 diabetes patients, plasma	oral, 25 mg/day, day 1		renal clearance	1.83 ± 0.373 mL/min
CC[C@H](C)[C@H](NC(=O)[C@H](Cc1ccccc1)NC(=O)[C@H](CCC(=O)O)NC(=O)[C@H](CCCCNC(=O)COCCOCCNC(=O)COCCOCCNC(=O)CC[C@H](NC(=O)CCCCCCCCCCCCCCCCC(=O)O)C(=O)O)NC(=O)[C@H](C)NC(=O)[C@H](C)NC(=O)[C@H](CCC(N)=O)NC(=O)CNC(=O)[C@H](CCC(=O)O)NC(=O)[C@H](CC(C)C)NC(=O)[C@H](Cc1ccc(O)cc1)NC(=O)[C@H](CO)NC(=O)[C@H](CO)NC(=O)[C@@H](NC(=O)[C@H](CC(=O)O)NC(=O)[C@H](CO)NC(=O)[C@@H](NC(=O)[C@H](Cc1ccccc1)NC(=O)[C@@H](NC(=O)CNC(=O)[C@H](CCC(=O)O)NC(=O)C(C)(C)NC(=O)[C@@H](N)Cc1cnc[nH]1)[C@@H](C)O)[C@@H](C)O)C(C)C)C(=O)N[C@@H](C)C(=O)N[C@@H](Cc1c[nH]c2ccccc12)C(=O)N[C@@H](CC(C)C)C(=O)N[C@H](C(=O)N[C@@H](CCCNC(=N)N)C(=O)NCC(=O)N[C@@H](CCCNC(=N)N)C(=O)NCC(=O)O)C(C)C	12-lead Holter ECG	healthy humans	subcutaneous, 1.5 mg once weekly, 36 h, steady state	reference: placebo	QTcB change from baseline	6.4 ms
COc1ccc([C@@H](O)c2cc(-c3ncnc4cc(N5CCOCC5)ccc34)c(F)cc2Cl)nn1		locally advanced rectal cancer patients	250 mg, with: capecitabine and radiotherapy		drug-related lymphocyte count decrease	50%

SMILES	assay	system	setting	how to read	endpoint	result
C[C@@H](O)CCOC(=O)C[C@@H](C)O		human	oral drink, dose not given, 180 min post dose, mean		heart rate	73 beats/min
Cc1cc(NC2CCN(C(=O)OC3CCN(C(=O)/C=C/CN(C)C)C3)CC2)n2ncc(C(C)C)c2n1 (stereo not drawn)	Phase I dose escalation CTCAE v4.0, measured: Dizziness	patients with advanced solid tumours	dose not given, TIW dosing any grade		patients with adverse event	9%
Cn1cncc1-c1c(F)cncc1NC(=O)c1c(N)nn2cc(F)cnc12		patients, advanced solid tumours	oral, 180 mg once daily	reference: patients	grade ≥2 adverse events	60%
CC(C(=O)NCC(=O)NCC(CNC(=O)CNC(=O)C(C)N1CCN(CC(=O)[O-])CCN(CC(=O)[O-])CCN(CC(=O)[O-])CC1)(CNC(=O)CNC(=O)C(C)N1CCN(CC(=O)[O-])CCN(CC(=O)[O-])CCN(CC(=O)[O-])CC1)CNC(=O)CNC(=O)C(C)N1CCN(CC(=O)[O-])CCN(CC(=O)[O-])CCN(CC(=O)[O-])CC1)N1CCN(CC(=O)[O-])CCN(CC(=O)[O-])CCN(CC(=O)[O-])CC1.[Gd+3].[Gd+3].[Gd+3].[Gd+3] (stereo not drawn)	LC-ICP-MS	human plasma	pH 7.4, 37 °C		dissociation rate	not detected
Cc1c(Cl)c(C)[n+]([O-])c(Cl)c1-c1noc(-c2cc(O)c(O)c([N+](=O)[O-])c2)n1	measured: Hyperhidrosis	healthy Caucasian subjects	oral, 50 mg, 20 days		adverse drug reaction incidence	0%
COc1ccc2c3c([nH]c2c1)[C@H](CC(C)C)N1C(=O)[C@H](CC(=O)NC(C)C)NC(=O)[C@@H]1C3		Fech-mutant mouse, liver	oral, 100 mg/kg daily, 5 days		liver protoporphyrin IX	83.8 ng/g and 110 ng/g and 111 ng/g
N[C@@H](CC(=O)O)C(=O)OC(C(=O)O)c1ccccc1[N+](=O)[O-].O=C(O)C(F)(F)F (mixture of isomers)	1H NMR, dark	50 mM sodium phosphate	concentration not given, pH 5.8, room temperature, 12.5% DMSO-d6		hydrolysis half-life, B isomer	23 ± 2 h
Cc1ccc([C@@H]2O[C@H](CO)[C@@H](O)[C@H](O)[C@H]2O)cc1Cc1ccc(-c2ccc(F)cc2)s1	measured: inorganic phosphorus	Japanese type 2 diabetes patients	400 mg, day 3, 24 h urine collection	reference: baseline	urinary phosphate excretion change	202 mg
O=C(Nc1nc2cccc(-c3ccc(CN4CCS(=O)(=O)CC4)cc3)n2n1)C1CC1	measured: dyspepsia	human rheumatoid arthritis patients	oral, 30 mg once daily, 4 weeks, regardless of relatedness		treatment-emergent adverse events	0%
O=C1NCCc2nc(OCc3cccc(F)c3)ccc21	measured: Writhing	Sprague-Dawley rat male	oral, 100 mg/kg, 30 min	direction not given	Irwin test score	0
O=C(OC(C(F)(F)F)C(F)(F)F)N1CCN(Cc2cccc(Oc3ccccc3)c2)CC1	PET blocking study	rhesus monkey, brain THA	0.03 mg/kg, compound pretreatment, with: [18F]T-401 tracer		k2	0.04 min⁻¹
O=C(O)CCC(=O)O.[2H]C([2H])([2H])Oc1cc(C)c2[nH]ccc2c1CN1CC[C@@H](C2CC2)C[C@H]1c1ccc(C(=O)O)cc1	multiple ascending dose	healthy Chinese subjects	125 mg twice daily		subjects with sinus bradycardia TEAE	37.5%
C[C@H]1CN(C(=O)CC#N)[C@]12CCN(c1ncnc3[nH]ccc13)C2		healthy human	oral, dose not given		subjects with Paraesthesia	3.1%
CC(C)C[C@H](NC(=O)[C@@H](Cc1c[nH]c2ccccc12)NC(=O)[C@H](Cc1ccc(O)cc1)NC(=O)[C@H](CO)NC(=O)[C@H](Cc1c[nH]c2ccccc12)NC(=O)[C@H](Cc1c[nH]cn1)NC(=O)[C@@H]1CCC(=O)N1)C(=O)N[C@@H](CCCNC(=N)N)C(=O)N1CCC[C@H]1C(=O)NCC(N)=O		Chinese CPP children, overall	intramuscular, 22.5 mg, 12 months, day 1, month 6		patients, serious adverse events	0%
Cc1ccn2c(CNc3ccc(F)cc3)c(-c3ccccn3)nc2c1		peritoneal macrophages, Swiss mice	5 days, 5% fetal calf serum		CC50	> 63.1 µM
Cc1ccc(S(=N)C2CC2)cc1 (stereo not drawn)		human liver microsomes		reference: hepatic blood flow	metabolic stability	< 23%
CCc1cc(C(=O)NC)c2nccc(N3CCc4c(cc(Cn5ccnc5)cc4-c4cn(C)nc4C(F)(F)F)C3=O)c2c1		Sprague Dawley rat	oral, 100 mg/kg twice daily, 7 days		heart weight	0.947 ± 0.105 g
CCc1nn(C)c2nc(-c3ccc(C(=O)O)cc3)nc(NCc3ccc(F)cc3)c12		NSG mice	dose not given, day 7 of treatment		body weight	22.6 g and 21.3 g and 18.8 g and 20.8 g
C[C@@H]1OC(=O)[C@H](Cc2ccccc2)[C@H]1O		aerobic laboratory soil, dark	shortest worst case, dosed as metabolite, modelling endpoint		DT50	0.35 days
C=CC(=O)Nc1cc(Nc2nccc(-c3cn(C)c4ccccc34)n2)c(OC)cc1N(C)CCN(C)C	storage stability	human dried blood spot samples	30 d, -80 °C, HQC level	reference: nominal concentration	percentage recovery	43.6%
COc1nnc2ccc(N3CCC(c4ccc(OCCN5CCN(C)C(=O)[C@H]5C)cc4)CC3)nn12		human, plasma	oral, 2 mg once daily, single dose, monotherapy		AUClast	0.0837 µM·h
CC(=O)CC(c1ccccc1)c1c(O)c2ccccc2oc1=O (stereo not drawn)		Sprague-Dawley rat, male, plasma	oral, 0.3 mg/kg/day, 1 week, without PNS		Vz/F	0.233 ± 0.0147 L/kg
Cc1ccc(C(=O)N(CCCN)C(c2nc3snc(C)c3c(=O)n2Cc2ccccc2)C(C)C)cc1 (stereo not drawn)		human patients	intravenous, 18 mg/day		grade ≥3 hypokalemia patients	25%
C[C@@H](N)C1CCN(S(=O)(=O)c2cccc3cnccc23)CC1		healthy volunteers	250 mg, fasted		discontinuations due to TEAEs	0%
Cc1cn([C@H]2C[C@H]([18F])[C@@H](CO)O2)c(=O)[nH]c1=O	PET/CT, bi-exponential fit	Sprague-Dawley rat, nasal cavity	intranasal	reference: dose	nasal clearance amplitude B	11.6%
CN(CCCN1CCN(C(=O)CN2CCN(CC(=O)[O-])CCN(CC(=O)[O-])CCN(CC(=O)[O-])CC2)CC1)c1ccc2nccc(C(=O)NCC(=O)N3CC(F)(F)C[C@H]3C#N)c2c1.[68Ga+3]		mouse, HT-1080.hFAP/HT-1080.wt xenograft, HT-1080.hFAP tumour	iv, 500 pmol, 4 h		tumour uptake	1.3 %IA/g
Cc1ccc(Sc2ccccc2N2CCNCC2)c(C)c1		healthy adult men	oral, 2.5 mg single		any adverse event	0%

For quick reference, copied from above:
SMILES	assay	system	setting	how to read	endpoint	result
O=C(O)CCC(=O)O.[2H]C([2H])([2H])Oc1cc(C)c2[nH]ccc2c1CN1CC[C@@H](C2CC2)C[C@H]1c1ccc(C(=O)O)cc1	multiple ascending dose	healthy Chinese subjects	125 mg twice daily		subjects with sinus bradycardia TEAE	37.5%
CCc1c(-c2ccccc2)c(-c2ccccc2)nn1-c1ccccc1-c1cccc(OCC(=O)O)c1		Sprague-Dawley rat, heart	oral, 10 mg/kg, 4 h		concentration	3990 ng/g and 2060 ng/g
C[C@@H]1OC(=O)[C@H](Cc2ccccc2)[C@H]1O		aerobic laboratory soil, dark	shortest worst case, dosed as metabolite, modelling endpoint		DT50	0.35 days
O=C(Nc1nc2cccc(-c3ccc(CN4CCS(=O)(=O)CC4)cc3)n2n1)C1CC1	measured: dyspepsia	human rheumatoid arthritis patients	oral, 30 mg once daily, 4 weeks, regardless of relatedness		treatment-emergent adverse events	0%
